Results gathered from unrelated publications.
± gives the spread as reported.
ALB: Albumin (ALB, Bos taurus, UniProt P02769)

`O=P(O)(O)O[C@@H]1[C@@H](O)[C@H](O)[C@H](O)[C@H](O)[C@H]1OP(=O)(O)O` has a Hill coefficient of 1.2 ± 0.4 (Inositol 1,4,5-trisphosphate-gated calcium channel ITPR1, IP3-binding core (Itpr1, Rattus norvegicus, UniProt P29994, R504Q); binding, 3H-IP3 competition; IP3-binding core IBC^R504Q).
With `CC[C@H](C)[C@H](NC(=O)CNC(C)=O)C(=O)N[C@@H](CCCNC(=N)N)C(=O)N[C@@H](CCC(=O)O)C(=O)N[C@@H](C)C(=O)N[C@H](C(=O)N[C@@H](CC(C)C)C(=O)N[C@@H](CCCNC(=N)N)C(=O)N[C@@H](C)C(=O)N[C@@H](Cc1c[nH]c2ccccc12)C(=O)N[C@@H](CCC(=O)O)C(=O)N[C@@H](CCCNC(=N)N)C(=O)N[C@@H](CCCNC(=N)N)C(=O)N[C@@H](Cc1ccc(O)cc1)C(=O)NCC(=O)N[C@@H](Cc1ccccc1)C(=O)N1CCC[C@H]1C(=O)N[C@@H](CCCNC(=N)N)C(=O)N1CCC[C@H]1C(=O)N[C@@H](CC(C)C)C(=O)N[C@@H](CCCNC(=N)N)C(=O)N[C@@H](CO)C(=O)N[C@@H](CCC(=O)O)C(N)=O)[C@@H](C)O` the ΔH was -14.39 ± 0.11 kcal/mol (Antirepressor protein CarS (carS, Myxococcus xanthus, UniProt Q06911); ITC; pH 7.5, 35 °C).
`N=C(N)NCCC[C@H](NC(=O)[C@H](CC(=O)O)NC(=O)[C@@H]1CSCC(=O)NCC(=O)N[C@@H](Cc2c[nH]cn2)C(=O)N[C@H](Cc2ccccc2)C(=O)N[C@@H](CCCNC(=N)N)C(=O)N[C@@H](Cc2c[nH]c3ccccc23)C(=O)N1)C(=O)N[C@@H](Cc1ccccc1)C(=O)NCC(N)=O` — result for functional activity: “inactive” (Melanocortin receptor 4 (MC4R, Homo sapiens, UniProt P32245); cAMP accumulation; HEK293 expressing MC4R; concentration not given).
With `NS(=O)(=O)c1ccc(N2N=C(C(F)(F)F)C(O)C2c2ccc(F)cc2F)cc1` (stereo not shown) the IC80 was greater than 100 µM (Cyclooxygenase-2 (Canis lupus familiaris, UniProt Q8SPQ9); PGE2 formation, inhibitor; dog whole blood; 24 h, with: LPS).
For `O=C(O[C@@H]1Cc2c(O)cc(O)cc2O[C@@H]1c1cc(O)c(O)c(O)c1)c1cc(O)c(O)c(O)c1`, “substrate inhibition onset” read greater than 0.8 µM (Sulfotransferase 1A1 (SULT1A1, Homo sapiens, UniProt P50225); sulfation, substrate).
`OC(Cc1cc(-c2ccc(C(O)C(F)(F)F)s2)sc1-c1ccc(-c2sc(-c3ccc(C(O)C(F)(F)F)s3)cc2CC(O)C(F)(F)F)s1)C(F)(F)F` (stereo not shown) — result for “time to maximum fluorescence”: 96 h (Microtubule-associated protein tau, aggregated (MAPT, Homo sapiens, UniProt P10636); tau aggregation; sampled 1 to 240 h).
`C[n+]1cn(C2OC(COP(=O)(O)OP(=O)([O-])OP(=O)(O)OCC3OC(n4cnc5c(=O)[nH]c(N)nc54)C(O)C3O)C(O)C2O)c2nc(NCc3ccccc3)[nH]c(=O)c21` (stereo not shown) — result for “reverse cap orientation”: roughly 30% (NUDT16 (Homo sapiens, UniProt Q96DE0); refers to: analog-capped RNA).
`CCC(NC(=O)C(CC(C)C)NC(=O)CCc1ccccc1)C(=O)C(=O)NCc1cc(F)cc(OC)c1` (stereo not shown): enzyme activity “no effect” (Calpain-2 catalytic subunit (Capn2, Mus musculus, UniProt O08529); brain enzyme activity; mouse, controlled cortical impact TBI, brain; intraperitoneal, 0.1 or 1.0 mg/kg, 24 h after TBI).
`CCCCCC(C)(O)/C=C/C=C\C=C\C=C\[C@@H](O)[C@@H](O)CCCC(=O)OC` (mixture of isomers) has a relative potency of greater than 1000 fold (N-formyl peptide receptor 2 (FPR2, Homo sapiens, UniProt P25090); HEK293 transfected; with: [3H]LXA4; baseline: 15-deoxy-LXA4).
For `CC(=O)c1cnc(N)nc1N1CC[C@H]1c1nn2ccc(Cl)c2c(=O)n1-c1ccccc1`, the binding was 46% (Phosphatidylinositol 4,5-bisphosphate 3-kinase catalytic subunit beta isoform (Rattus norvegicus, UniProt Q9Z1L0); KiNativ; rat leukocyte lysate; 1 µM, 0.25 h).
The Emax of `Cc1cccnc1C(=O)Nc1ccc(N2C(=O)c3ccc(Cl)cc3C2=O)c(Cl)c1` is reported as 92% (Metabotropic glutamate receptor 1 (GRM1, Homo sapiens, UniProt Q13255); calcium signal, positive allosteric modulator; T-REx-293).
Under “dissociation rate constant”, `CNc1ccccc1C(=O)O[C@H]1C[C@H](n2cnc3c(N)ncnc32)O[C@@H]1COP(=O)(O)OP(=O)(O)O` is recorded as 1.59 ± 0.01 s⁻¹ (Unconventional myosin-Va (Gallus gallus, UniProt Q02440, D297C/G292C/I296C/S293C/V295G); stopped-flow FRET; 10 °C, with: MgCl2 10 mM).
For `N=C(N)NCCC[C@@H]1NC(=O)[C@H](Cc2c[nH]c3ccccc23)NC(=O)[C@H](CCCNC(=N)N)NC(=O)[C@H](Cc2c[nH]c3ccccc23)NC(=O)[C@H](CCCNC(=N)N)NC(=O)[C@H](Cc2c[nH]c3ccccc23)NC(=O)[C@H](CCCNC(=N)N)NC(=O)[C@H](Cc2c[nH]c3ccccc23)NC(=O)[C@H](CCCNC(=N)N)NC(=O)[C@H](Cc2c[nH]c3ccccc23)NC(=O)[C@H](CCCNC(=N)N)NC(=O)[C@H](Cc2c[nH]c3ccccc23)NC(=O)[C@H](CCCNC(=N)N)NC(=O)[C@H](Cc2c[nH]c3ccccc23)NC(=O)[C@H](CCCNC(=N)N)NC(=O)[C@H](Cc2c[nH]c3ccccc23)NC(=O)[C@H](CCCNC(=N)N)NC(=O)[C@H](Cc2c[nH]c3ccccc23)NC1=O`, the remaining activity was 7% (Tyrosine-protein kinase ABL1 (ABL1, Homo sapiens, UniProt P00519); enzyme activity, inhibitor, radiometric; 5 µM).
`COC(=O)c1cnc(-c2cnccn2)cc1C(=O)OC.COC(=O)c1cnc(-c2cnccn2)cc1C(=O)OC.O.O.O.O=S(=O)([O-])C(F)(F)F.O=S(=O)([O-])C(F)(F)F.[Cu+2]`: “quenching rate constant” 2.28e+13 M⁻¹ s⁻¹ (ALB; fluorescence quenching).
`O=C(NCC1CO1)Oc1ccc([N+](=O)[O-])cc1` (racemic) — result for “signal to noise ratio”: 4 (Epoxide hydrolase 1 (EPHX1, Homo sapiens, UniProt P07099); substrate, absorbance; 50 µM, pH 9.0, 37 °C, human enzyme).
With `Cc1cccc(Cn2ncc3c4cc(F)c(CN(C)C)cc4n(C)c3c2=O)n1` the ΔS was 1.53 ± 7.03 J/(mol·K) (Pyruvate kinase PKM (PKM, Homo sapiens, UniProt P14618); ITC; pH 7.5, 25 °C).
The hyperchromism of `CC(=O)[O-].O.O.O.O.[Ni+2].[O-]c1ccc(Br)cc1C=NCCN1CCOCC1` is reported as 56.9% (ALB; UV absorption titration; concentration not given, pH 7.2, 25 °C).
`O=C(O[C@H]1[C@@H]2C=CO[C@@H](O[C@@H]3O[C@H](CO)[C@@H](O)[C@H](O)[C@H]3O)[C@@H]2[C@@]2(CO)O[C@@H]12)c1ccc(O)cc1` gave a Hill coefficient of 1 (Organic anion transporter 3 (SLC22A8, Homo sapiens, UniProt Q8TCC7); uptake, substrate; HEK293 overexpressing SLC22A8).
The ΔG of `COc1cc(C2CC(=O)Nc3nc(N)[nH]c(=O)c32)ccc1O` (stereo not shown) is reported as -8.01 kcal/mol (uncharacterized protein (Leishmania donovani, UniProt A0A3Q8IA09); ITC).
Under “inhibition rate constant”, `Cc1ccccc1-c1cc(N2CCOCC2)ccc1N(C)C(=O)C(C)(C)c1cc(C(F)(F)F)cc(C(F)(F)F)c1` is recorded as 0.11 ± 0.04 min⁻¹ (Substance-P receptor (TACR1, Homo sapiens, UniProt P25103); antagonist, BRET; HEK293T; 10 µM, with: substance P, added 5 min before).
`CCN(CC)C(=O)c1ccc(O)c(OC)c1` gave a contrast of 29% (Heat shock protein HSP 90-alpha, N-terminal domain (HSP90AA1, Homo sapiens, UniProt P07900); binding, ligand-observed NMR titration; ligand to protein ratio 548).
Under “relative fluorescence increase”, `CC(=O)N[C@@H](CC(N)=O)C(=O)N[C@@H](CCCNC(=N)N)C(=O)N[C@@H](CCCNC(=N)N)C(=O)N[C@@H](CC(N)=O)C(=O)N[C@H](C(=O)N[C@@H](C)C(=O)N[C@@H](CC(N)=O)C(=O)N[C@@H](CCN1C(=O)c2ccc(N(C)C)cc2C1=O)C(=O)N[C@@H](CCCNC(=N)N)C(=O)N[C@H](C(=O)N[C@H](C(=O)N1CCC[C@H]1C(=O)N[C@H](C(=O)O)C(C)C)[C@@H](C)O)[C@@H](C)O)[C@@H](C)O` is recorded as 6.9 (Disks large homolog 4, PDZ1-2 domains (Homo sapiens, UniProt P78352); PDZ domain binding, fluorescence emission intensity; PSD-95 PDZ1-2 tandem construct; 4-DMAP-Dab at position -5; baseline: probe without PDZ domain).
With `C=C1C(=O)OC2C1CCC(C)=C1C(OC(=O)CCCCCCCCCCCNC(=O)CCCCC3SCC4NC(=O)NC43)CC(C)(O)C12` (stereo not shown) the enrichment ratio was 5.1 fold (Exocyst complex component 1 (EXOC1, Homo sapiens, UniProt Q9NV70); competitive pull-down LC-MS/MS; M9-ENL1 cell lysate; with: probe 10 µM; baseline: MCL-treated control).
For `CC(=N)NCc1cccc(CN)c1`, the Hill slope was 0.8 ± 0.1 (Nitric oxide synthase 3 (Rattus norvegicus, UniProt Q62600); ACh-evoked cGMP accumulation; rat aortic rings).
`CCCCCCOc1ccc(C(=O)OCC[N+]2(C)CC=CCC2)cc1` (stereo not shown) gave a dissociation half-time of 4.3 ± 0.4 h (Muscarinic acetylcholine receptor M4 (CHRM4, Homo sapiens, UniProt P08173); recovery of [3H]NMS binding after washing; membranes; 100 µM).
`CO[C@@H]1O[C@H](CO)[C@@H](O[C@H]2O[C@H](CO)[C@@H](OP(=O)(O)O)[C@H](OP(=O)(O)O)[C@H]2O)[C@H]1OP(=O)(O)O` has a delta pKd of 1.33 ± 0.24 (Inositol 1,4,5-trisphosphate-gated calcium channel ITPR1, N-terminal region (Itpr1, Rattus norvegicus, UniProt P29994, del318-332/R504Q); [3H]IP3 competition binding; N-terminal fragment; Tris-EDTA medium, unit not given; baseline: R504Q minus wild type).
For `O=C(O)c1cccc(-c2ccccc2O[C@@H]2O[C@H](CO)[C@H](O)[C@H](O)[C@H]2O)c1`, the inhibition (PI10) was 75% (Adhesin FmlH, lectin domain (Escherichia coli, UniProt Q1RBS0); binding to desialylated BSM, competition ELISA; UPEC UTI89; 10 µM).
`O=C([O-])CN1CCN(CC(=O)[O-])CCN(C(CCC(=O)NCCCCCN(CCCC[C@H](NC(=O)N[C@@H](CCC(=O)O)C(=O)O)C(=O)O)C(=O)c2ccc(I)cc2)C(=O)O)CCN(CC(=O)[O-])CC1.[68Ga+3]` (stereo partly shown): “tumour-to-normal tissue ratio” 10.6 ± 8.18 (Glutamate carboxypeptidase 2 (FOLH1, Homo sapiens, UniProt Q04609); PET/CT; prostate cancer patients, lymph nodes metastases; baseline: lymph nodes metastases over liver).

Some of these lines once more:
`CCCCCCOc1ccc(C(=O)OCC[N+]2(C)CC=CCC2)cc1` (stereo not shown) gave a dissociation half-time of 4.3 ± 0.4 h (Muscarinic acetylcholine receptor M4 (CHRM4, Homo sapiens, UniProt P08173); recovery of [3H]NMS binding after washing; membranes; 100 µM).
`OC(Cc1cc(-c2ccc(C(O)C(F)(F)F)s2)sc1-c1ccc(-c2sc(-c3ccc(C(O)C(F)(F)F)s3)cc2CC(O)C(F)(F)F)s1)C(F)(F)F` (stereo not shown) — result for “time to maximum fluorescence”: 96 h (Microtubule-associated protein tau, aggregated (MAPT, Homo sapiens, UniProt P10636); tau aggregation; sampled 1 to 240 h).
`CCN(CC)C(=O)c1ccc(O)c(OC)c1` gave a contrast of 29% (Heat shock protein HSP 90-alpha, N-terminal domain (HSP90AA1, Homo sapiens, UniProt P07900); binding, ligand-observed NMR titration; ligand to protein ratio 548).
For `N=C(N)NCCC[C@@H]1NC(=O)[C@H](Cc2c[nH]c3ccccc23)NC(=O)[C@H](CCCNC(=N)N)NC(=O)[C@H](Cc2c[nH]c3ccccc23)NC(=O)[C@H](CCCNC(=N)N)NC(=O)[C@H](Cc2c[nH]c3ccccc23)NC(=O)[C@H](CCCNC(=N)N)NC(=O)[C@H](Cc2c[nH]c3ccccc23)NC(=O)[C@H](CCCNC(=N)N)NC(=O)[C@H](Cc2c[nH]c3ccccc23)NC(=O)[C@H](CCCNC(=N)N)NC(=O)[C@H](Cc2c[nH]c3ccccc23)NC(=O)[C@H](CCCNC(=N)N)NC(=O)[C@H](Cc2c[nH]c3ccccc23)NC(=O)[C@H](CCCNC(=N)N)NC(=O)[C@H](Cc2c[nH]c3ccccc23)NC(=O)[C@H](CCCNC(=N)N)NC(=O)[C@H](Cc2c[nH]c3ccccc23)NC1=O`, the remaining activity was 7% (Tyrosine-protein kinase ABL1 (ABL1, Homo sapiens, UniProt P00519); enzyme activity, inhibitor, radiometric; 5 µM).
